Published values pooled from the literature.
Each numbered part is a random draw from the data of one study; scales do not carry over between parts. Changes are numbered by the printed parent chain.

Sample 1
Target: RNA binding protein fox-1 homolog 2, RRM domain, GST-SBP tag (RBFOX2, Homo sapiens, UniProt O43251-10, residues 100-194)
Method: RNA Bind-n-Seq
Molecule type: RNA
Medium: in vitro
Concentration: 365 nM
Notes: natural RNA segment, single round, ends assumed
Relative to: no-protein control
Reading: higher = stronger binding
| Strand | RBNS enrichment (R) |
| --- | --- |
| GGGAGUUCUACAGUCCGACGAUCCUCUGCCUCAGUGGGCCUGUGGGAGCCUACUGGAGCCCAGCACUUACUCCCCCUGAGCAGCGAGCCUGCGUCUGUCUCAGCUGUCCAGCGCUGAGGGCCAGGGUCUUGUGUGGAAUUCUCGGGUGCCAA | 0.67 |
| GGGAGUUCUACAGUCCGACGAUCACGGGGCCGGCCAGGUGGGCGGGCAGCACAGCAAGGAGGCUGGCUGGGGCCUAUCAGUGUGCCCCCCAUCCUGGCCCAUCAGUGUACCCCCGCCCAGGCUGGCCAGCCCCUGGAAUUCUCGGGUGCCAA | 0.435 |
| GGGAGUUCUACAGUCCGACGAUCGUGACAGCUUGCUUCAGGACAAAGCAACAGUGAAGUGAGAAAAUGUCAACAGGAGAGAAAGGGCCCGGCAACCCUCUGGCCCUAACCUGCUCUAGCCUGUACAUCCCACAUGGAAUUCUCGGGUGCCAA | 0.602 |
| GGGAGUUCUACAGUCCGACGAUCCCAUCUUUUAGGAUGGGCCCCCAGGAGACUGAGGUCUUCCUGGGCCCUCAUUGCUGCUUAUCGUACCCCCCAUCACCUGCACAUGGGACAGACCGGGCUGGAGGGUGACCUGGAAUUCUCGGGUGCCAA | 0.66 |
| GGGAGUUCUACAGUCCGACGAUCUGCGUUAAAUAUUGGGCAAAUUGCACUUGACUAAUUUUUGAAGAAAAGUAAUUUAUUCUGUCAAGAAAUUAAAAAUAGGCUUUGUGUAUGGUUAAACUGUAAAUCUUAUGUGGAAUUCUCGGGUGCCAA | 0.453 |
| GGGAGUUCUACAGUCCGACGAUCAUAAAAUGAUUACCUCUGGUGUUGACAGGUUGAACUUGCACUCUUAAGGAACAGCCAUAACCCUCCGAAUGAUUGCAUUAAUUUCUGACCGCCCUCAGCCCGUUGGAAGCUGGAAUUCUCGGGUGCCAA | 0.795 |
| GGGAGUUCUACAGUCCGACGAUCUUGGGGUACACCUUUGGAUGCUAUGGAAAUACGCAGUUUGGUUUCAGAAAAGAUUUAUUAGAAAACCCUCACCCCAACCUGGUGAGGCAGUCACUCAUGACUGGAGGAAAUGGAAUUCUCGGGUGCCAA | 0.411 |
| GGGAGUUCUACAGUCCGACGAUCCACAGCAGCCUCUGAGGAAAGACAAGGACAAGAAGAAGUUUGACCCUCAGCCCGGGACGCCACAAACUGAAGCGAGUUCCCUGCUUUGCUCGUCACAAAUGCCAAACUGAUGGAAUUCUCGGGUGCCAA | 0.369 |

Sample 2
Target: CCNF, cyclin fold, Cln2 fusion (human)
Method: yeast growth competition, sequencing
Medium: yeast
Notes: strong parent motif
Relative to: not given
Reading: higher = stronger binding
Parent: RBL1 docking peptide (human); GSAKRRLFGEDPP; partner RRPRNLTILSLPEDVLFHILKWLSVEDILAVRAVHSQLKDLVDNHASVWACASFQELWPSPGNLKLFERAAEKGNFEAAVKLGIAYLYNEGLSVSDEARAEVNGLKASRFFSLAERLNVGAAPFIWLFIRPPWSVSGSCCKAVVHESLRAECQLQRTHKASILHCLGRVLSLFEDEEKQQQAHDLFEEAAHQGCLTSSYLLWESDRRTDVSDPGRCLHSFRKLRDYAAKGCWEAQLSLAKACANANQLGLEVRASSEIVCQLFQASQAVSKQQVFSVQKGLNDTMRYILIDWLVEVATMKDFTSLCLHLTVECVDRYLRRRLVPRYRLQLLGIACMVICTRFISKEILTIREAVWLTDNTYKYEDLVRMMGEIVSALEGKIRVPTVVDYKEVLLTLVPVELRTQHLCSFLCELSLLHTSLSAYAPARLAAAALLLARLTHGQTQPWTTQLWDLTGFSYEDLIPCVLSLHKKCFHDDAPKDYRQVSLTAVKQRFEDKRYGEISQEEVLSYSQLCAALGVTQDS
| Substitution | normalised enrichment score |
| --- | --- |
| GSTKRRLFGEDPP [A3T] | 7.24 |
| GSAKYRLFGEDPP [R5Y] | 0.276 |
| GSKKRRLFGEDPP [A3K] | 1.97 |
| GSAKRRLFEEDPP [G9E] | 7.25 |
| GSAKRRLFGEDPW [P13W] | 7.21 |
| ASAKRRLFGEDPP [G1A] | 8.32 |
| GSANRRLFGEDPP [K4N] | 5.36 |
| GSAKRRLFGEDPA [P13A] | 6.84 |
| GSAKNRLFGEDPP [R5N] | 0.915 |
| GSAKRRLYGEDPP [F8Y] | 3.24 |
| GSAKRRLFGEPPP [D11P] | 5.98 |
| GSAKRRLFGENPP [D11N] | 7.36 |
| GSAKRRLFGEQPP [D11Q] | 7.74 |
| GSAKRRLWGEDPP [F8W] | 3.46 |
| GSAKRRLRGEDPP [F8R] | 0.825 |
| GSAKRELFGEDPP [R6E] | 2.96 |
| HSAKRRLFGEDPP [G1H] | 8.22 |
| GSAKRRLFGEDPD [P13D] | 6.84 |
| GSAKRRLFLEDPP [G9L] | 9.45 |
| GSDKRRLFGEDPP [A3D] | -0.438 |
| GSAKRRLEGEDPP [F8E] | 0.125 |
| GSAKRRLFGEDPV [P13V] | 8.77 |

Sample 3
Target: Interferon regulatory factor 5, full length, phosphomimetic (IRF5, Homo sapiens, UniProt Q13568-2, residues 1-514, K96S/S451D/S453D/S456D/S462D)
Method: protein-binding microarray
Molecule type: double-stranded DNA, one strand shown
Medium: in vitro
Concentration: 250 nM
Notes: 60-bp whole probe
Together with: salmon DNA 0.4 mg/ml
Relative to: random background probes
Reading: higher = stronger binding
Constant ends, left off below: GCCTAGCAC … GTCTTGATTCGCTTGACGCTGCTG
| Strand | log fluorescence |
| --- | --- |
| GACGGACTGGGGTTCGGGACGTGCTAG | -0.776 z-score |
| TACGGACTGGACTTTCGGGACGTGCTA | 4.3 z-score |
| GACGATTTCAGTCTCGAGACGTGCTAG | 1.44 z-score |
| TTAGTTATCAGACTGGATTAGTGCTAG | 0.381 z-score |
| TTAGATTTCGACTTTCGGTTAGTGCTA | 10.3 z-score |
| GACGTTATCGGGACTGGAGACGTGCTA | 1.03 z-score |
| TCAAACATCTACAATGGCACTGTGCTA | 0.356 z-score |
| TCAGATTGGTTGAACATACTGTGCTAG | -0.057 z-score |
| TTAGATTTCAGCTCCGATTAGTGCTAG | 0.648 z-score |
| TTAGAGCTGAGTTTCGATTAGTGCTAG | 9.04 z-score |
| TTAGGAATCCTTTTCCTTTAGTGCTAG | 0.469 z-score |
| GACGATATCAGTTCCGAGACGTGCTAG | 1.23 z-score |
| GACGATATCCTTCTCCTGACGTGCTAG | 0.247 z-score |
| TTAGGACTGGTTTTCCTTTAGTGCTAG | 0.355 z-score |
| TCATTTTTTTCATTATTACTGTGCTAG | 2.04 z-score |
| GACCGTCTCGGTCTCGGGACGTGCTAG | -0.0836 z-score |
| TTTCCTTTATGTCCTGTCTAGTGCTAG | 3.38 z-score |
| TCATTTTTTTTTTTTTCACTGTGCTAG | 1.69 z-score |
| CACGAACTGAGTCTCGAGACGTGCTAG | -0.081 z-score |

Sample 4
Target: ABI1, truncated, D143A, DHFR fusion (Arabidopsis thaliana)
Method: DHFR PCA, deep sequencing
Medium: yeast
Notes: methotrexate growth selection, single substitutions
Together with: (+)-ABA 58 µM
Relative to: wild-type fitted maximum
Reading: higher = stronger binding
Parent: PYL1, truncated, DHFR fusion (Arabidopsis thaliana); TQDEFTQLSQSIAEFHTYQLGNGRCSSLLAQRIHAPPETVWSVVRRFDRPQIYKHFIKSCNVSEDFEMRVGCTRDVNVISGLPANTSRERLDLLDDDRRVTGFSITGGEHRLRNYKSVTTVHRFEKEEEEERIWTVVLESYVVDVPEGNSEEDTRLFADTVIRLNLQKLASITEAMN; partner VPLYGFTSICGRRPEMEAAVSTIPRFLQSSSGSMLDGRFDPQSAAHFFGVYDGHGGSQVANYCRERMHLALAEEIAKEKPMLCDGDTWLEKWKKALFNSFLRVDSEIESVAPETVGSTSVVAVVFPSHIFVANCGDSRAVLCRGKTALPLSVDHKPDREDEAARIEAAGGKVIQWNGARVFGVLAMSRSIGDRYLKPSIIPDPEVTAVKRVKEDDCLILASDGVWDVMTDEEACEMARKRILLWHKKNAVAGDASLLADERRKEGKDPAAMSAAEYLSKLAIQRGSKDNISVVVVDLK
| Substitution | relative binding score |
| --- | --- |
| V142M | 71.6% |
| Q19K | 97.4% |
| V78G | 1.06% |
| E129N | 98.7% |
| V161Q | 10.6% |
| G102I | 13.2% |
| Q31H | 77.8% |
| L94E | 2.86% |
| M176A | 82.8% |
| F56C | 54.3% |
| E131G | 103% |
| I52M | 85.6% |
| F5C | 89.7% |
| K58A | 84.5% |
| L164H | 83.8% |
| L169R | -0.231% |
| A158W | -1.04% |
| P50W | -6.55% |
| I33K | -2.89% |
| A158F | 5.44% |
| K126D | 97.4% |
| K54V | 0.476% |
| E125Y | 97.8% |
| V118K | 82.5% |
| V137A | 31.8% |
